Published values collected from several papers.
Parts stem from different laboratories: compare values within a part only.

Study 1
Target: Transcription factor Sp1 (SP1, Homo sapiens, UniProt P08047, residues 1-785, full length assumed)
UniProt P08047, sequence (whole entry, looked up): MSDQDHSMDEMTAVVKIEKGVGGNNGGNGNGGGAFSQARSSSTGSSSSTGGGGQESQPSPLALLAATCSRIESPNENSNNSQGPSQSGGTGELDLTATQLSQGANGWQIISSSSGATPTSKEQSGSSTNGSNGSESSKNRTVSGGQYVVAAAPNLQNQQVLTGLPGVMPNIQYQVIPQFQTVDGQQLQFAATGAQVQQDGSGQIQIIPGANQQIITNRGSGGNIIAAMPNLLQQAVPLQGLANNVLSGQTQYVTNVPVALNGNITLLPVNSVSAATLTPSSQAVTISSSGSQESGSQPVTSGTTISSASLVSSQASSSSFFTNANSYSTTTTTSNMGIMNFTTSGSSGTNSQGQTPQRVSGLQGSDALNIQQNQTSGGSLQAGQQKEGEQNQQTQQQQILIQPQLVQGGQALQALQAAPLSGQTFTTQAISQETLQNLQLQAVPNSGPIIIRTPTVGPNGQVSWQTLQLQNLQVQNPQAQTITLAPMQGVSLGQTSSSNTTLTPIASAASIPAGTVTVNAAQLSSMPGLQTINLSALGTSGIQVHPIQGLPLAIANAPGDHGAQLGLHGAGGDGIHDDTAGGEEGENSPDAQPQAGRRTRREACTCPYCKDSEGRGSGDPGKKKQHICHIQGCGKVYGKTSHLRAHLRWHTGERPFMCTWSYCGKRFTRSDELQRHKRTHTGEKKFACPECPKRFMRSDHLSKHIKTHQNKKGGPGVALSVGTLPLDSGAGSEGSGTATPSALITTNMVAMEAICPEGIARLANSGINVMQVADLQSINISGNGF
Technique: protein-binding microarray
Form: double-stranded DNA, one strand shown
Sample: in vitro
Tested at: not given
Setting: k-mer, scored over probes, only values ≥0.25
Direction: higher = stronger binding
Oligonucleotide	E-score
CCGCCTAC	0.362
ATATCACC	0.256
GGGCGTCA	0.302
AGGGATGG	0.291
AAAGGGGT	0.258
CCCGAACA	0.257
AGGTGGGC	0.306
TATCGGGA	0.273
AACCCCGC	0.309
AAGGGGTG	0.348

Study 2
Target: Interferon regulatory factor 7, full length, phosphomimetic (IRF7, Homo sapiens, UniProt Q92985, residues 1-503, S471D/S472D/S475D/S476D/S477D/S483D/S484D/S487D)
UniProt Q92985, sequence (whole entry, unmodified, looked up): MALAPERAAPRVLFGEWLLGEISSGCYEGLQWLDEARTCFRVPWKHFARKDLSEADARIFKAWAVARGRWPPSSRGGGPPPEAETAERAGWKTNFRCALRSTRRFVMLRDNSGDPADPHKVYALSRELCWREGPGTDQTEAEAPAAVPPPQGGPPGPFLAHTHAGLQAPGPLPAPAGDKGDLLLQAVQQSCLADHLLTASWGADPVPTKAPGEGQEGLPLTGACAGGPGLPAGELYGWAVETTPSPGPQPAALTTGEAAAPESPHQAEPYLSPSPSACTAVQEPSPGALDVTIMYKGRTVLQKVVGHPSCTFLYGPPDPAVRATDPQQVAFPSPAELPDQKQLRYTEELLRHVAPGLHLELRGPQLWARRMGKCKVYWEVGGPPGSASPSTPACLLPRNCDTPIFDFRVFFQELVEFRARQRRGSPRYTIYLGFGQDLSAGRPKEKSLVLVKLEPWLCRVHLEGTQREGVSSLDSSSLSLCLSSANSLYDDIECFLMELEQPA
Technique: protein-binding microarray
Form: double-stranded DNA, one strand shown
Sample: in vitro
Tested at: 2200 nM top
Setting: 60-bp whole probe
With: salmon DNA 0.4 mg/ml
Reference: random background probes
Direction: higher = stronger binding
All sequences stand within: GCCTAGCAC … GTCTTGATTCGCTTGACGCTGCTG
Oligonucleotide	fitted relative affinity
TCATCTGTGCCTTTTTTACTGTGCTAG	1.33 z-score
GACGGTCTCCTTTTCATGACGTGCTAG	1.46 z-score
TTAGATATCGCGTATCGATTAGTGCTA	0.281 z-score
GACGGTTCTGGTTTCGGGACGTGCTAG	3.78 z-score
GACGCTTTCGGGACTGGGGACGTGCTA	4.3 z-score
GTGGCAGGCCCTCGGGCTCCGTGCTAG	-1.44 z-score
TTAGGGCTGGGTATCGGTTAGTGCTAG	-0.599 z-score
GACAGACTGCTTTTCCTGACGTGCTAG	0.752 z-score
TCACTCATGGCTTTGTAACTGTGCTAG	0.883 z-score
GACGGTATCCTACTGCTGGCGTGCTAG	0.488 z-score
AACGAACTGAGTCTCGAGACGTGCTAG	0.0695 z-score
GACGGAATGGGTCTCGGGACGTGCTAG	-0.438 z-score
TTACGTATCGGACTGGGTTAGTGCTAG	1.17 z-score
TCAGATATCAGTTTCGATTAGTGCTAG	5.64 z-score
GACGGTATCCGGACTGGGGACGTGCTA	-0.475 z-score
CTCAAGATTCCTCTCACCTCGTGCTAG	0.997 z-score
GAGGGTCTCGGACTGGGGACGTGCTAG	-1.21 z-score
ATCTCACTCTGTCCCTCTGTGTGCTAG	2.33 z-score
TGAAAATTCTAATTAGAATTGTGCTAG	-0.863 z-score

Study 3
Target: Prothrombin, mature alpha-thrombin (F2, Homo sapiens, UniProt P00734)
Technique: aptamer microarray, sandwich
Form: DNA with 2'F-ANA
Sample: in vitro
Tested at: 200 nM
Setting: whole 15-mer aptamer, many near background
With: Cy3 exosite-II aptamer, 400 nM
Direction: higher = stronger binding
Oligonucleotide: GGTTGGTGTGGTTGG
Modification	mean fluorescence intensity [a.u.]
2'F-ANA at 3 8 9 10 13	538
2'F-ANA at 1 5 7 8 10 11 13 15	50.7
2'F-ANA at 2 3 4 6 7 9 10 12	286
2'F-ANA at 5 6 10 12 13 14 15	47.9
2'F-ANA at 1 2 5 6 7 10 14 15	47.7
2'F-ANA at 3 4 5 6 11 12 15	143
2'F-ANA at 4 5 10 13 14	39.7
2'F-ANA at 2 3 8 11 12 13 14 15	483
2'F-ANA at 1 2 3 5 9 10 11 15	45.5
2'F-ANA at 1 2 3 4 6 9 10 11 12 13 14 15	58.8
2'F-ANA at 3 4 5 6 9 10 13 15	72.6
2'F-ANA at 2 3 5 6 7 8 10 12 14	91.7
2'F-ANA at 2 3 6 8 9 10 15	343
2'F-ANA at 1 5 10 12 13	47.3
2'F-ANA at 1 2 7 9 10 12 15	75.3
2'F-ANA at 2 3 4 6 7 9 12 13 14 15	217
2'F-ANA at 1 2 3 4 5 12 13	93.3
2'F-ANA at 1 3 4 5 6 7 8	66.2
2'F-ANA at 1 2 3 6 7 8 10 11 12 14 15	54.2
2'F-ANA at 1 3 5 6 9 10 11 13 14	83.8
2'F-ANA at 2 3 4 5 6 7 10 11 13	49.4
2'F-ANA at 1 2 5 7 10 11 12 13 14	47.2
2'F-ANA at 1 2 3 5 6 7 8 10 11 14 15	47
2'F-ANA at 2 3 8 12 13	1070

Study 4
Target: Ras GTPase-activating protein-binding protein 1, full length (G3BP1, Homo sapiens, UniProt Q13283)
UniProt Q13283, sequence (whole entry, looked up): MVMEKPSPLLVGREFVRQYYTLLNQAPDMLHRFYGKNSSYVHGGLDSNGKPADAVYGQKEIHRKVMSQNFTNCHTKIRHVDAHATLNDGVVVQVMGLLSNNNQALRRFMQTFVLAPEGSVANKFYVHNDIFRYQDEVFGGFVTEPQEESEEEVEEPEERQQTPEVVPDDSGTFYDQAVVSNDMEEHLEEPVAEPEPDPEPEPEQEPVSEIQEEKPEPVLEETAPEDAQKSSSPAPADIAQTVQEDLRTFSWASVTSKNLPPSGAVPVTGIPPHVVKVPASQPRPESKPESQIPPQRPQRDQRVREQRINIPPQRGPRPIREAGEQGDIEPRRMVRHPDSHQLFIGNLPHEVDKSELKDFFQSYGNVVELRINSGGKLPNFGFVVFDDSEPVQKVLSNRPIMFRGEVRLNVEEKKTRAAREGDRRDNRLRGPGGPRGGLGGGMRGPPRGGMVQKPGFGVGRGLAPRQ
Technique: RNA Bind-n-Seq
Form: RNA
Sample: in vitro
Tested at: 200 nM
Setting: whole 134-nt RNA, ends assumed
With: 150 mM LiCl
Reference: input library
Direction: higher = stronger binding
All molecules: 7-deaza-guanosine replaces G
All sequences stand within: GGGAGUUCUACAGUCCGACGAUC … UGGAAUUCUCGGGUGUCAAGG
Oligonucleotide	log2 enrichment
GCAGGAAGUAAAAACAAAUGGAAAUGCUUCGGAUAGUGGCAGGGGUGGGGGUAAAUAAGGAAAGGGUGGGAUGGGAGUGGGUAAAGAGUU	0.167
UCCUGUGCUACACAUCGUAUGUACCGAAUCAAACCCCCAAACCCCCAAACCCCCCCAAAAAAGUAUUAUGUUACGCCGUUCGGAUCUGCA	0.0501
AAGUCCUGUGCUACACAUCGUAUGUACCGAAUCGGCCCCGGGCCCCGGCCCCGGGGAAAGUAUUAUGUUACGCCGUUCGGAUCUGCACUU	-0.577
CUGUGCUACACAUCGUAUGUACCGAAUCGGGUUUUUUUGGGUUUUUUUGGGAAAAAAAGGGAAAGUAUUAUGUUACGCCGUUCGGAUCUG	0.182
CCUGUGCUACACAUCGUAUGUACCGAAUCGGGCCCCCCGGGGCCCCCCGGGCCCCCCGGGAAAGUAUUAUGUUACGCCGUUCGGAUCUGC	-2.43
GUCCUGUGCUACACAUCGUAUGUACCGAAUCAAACCCCCCCAAACCCCCAAACCCAAAAAAGUAUUAUGUUACGCCGUUCGGAUCUGCAC	-0.000707
GUCCUGUGCUACACAUCGUAUGUACCGAAUCGGGGUUUUUGGGGAGGGGUUUUUGGGGAAAGUAUUAUGUUACGCCGUUCGGAUCUGCAC	0.0776
CCUCAAGUCCUGUGCUACACAUCGUAUGUACCGAAUCGGGGCGGGCGGGCGGAAAGUAUUAUGUUACGCCGUUCGGAUCUGCACUUCCAG	-0.272
